Assay results gathered from unrelated publications.
Protocols differ between the studies behind these lines. ± gives the spread as reported.
ESR1: Estrogen receptor (ESR1, Homo sapiens, UniProt P03372)
T1: DNA aptamer; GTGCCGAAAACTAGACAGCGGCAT

| Structure (SMILES) | target | assay | system | conditions | scale | measurement | value |
| --- | --- | --- | --- | --- | --- | --- | --- |
| [11CH3]Nc1ccc(-c2nc3ccc(O)cc3o2)cn1 | APP (Homo sapiens, UniProt P05067) | binding, PET | Alzheimer's disease patients, anterior cingulate cortex | unit not given | relative to: control subjects | effect size of DVR | 5.44 |
| C[C@H](Cn1cnc2c(N)ncnc21)OCP(=O)(O)O | T1, DNA aptamer | interferometric free solution assay |  | 2 h, 22 °C, NaCl 150 mM, single-site fit |  | Kd | 4.17 nM |
| CNc1ccccc1C(=O)O[C@H]1C[C@H](n2cnc3c(N)ncnc32)O[C@@H]1COP(=O)(O)OP(=O)(O)O | Unconventional myosin-Va (Gallus gallus, UniProt Q02440, D297C/G292C/I296C/S293C/V295G) | stopped-flow FRET |  | 15 °C, together with: MgCl2 10 mM |  | association rate constant | 2.49 ± 0.15 µM⁻¹ s⁻¹ |
| Cn1c(=S)c2[nH]c(SCCc3ccccc3)nc2n(C)c1=O | ESR1 | reporter gene, ERE luciferase | T47D-KBluc | 10 µM, 24 h, together with: estradiol 5 nM | relative to: maximal luciferase activity | reporter activity | 33% |
| C=C1C[C@]2(C(=O)OC)C=C(C(=O)Nc3cccc(C(=O)Nc4ccc(Nc5nccc(-c6cccnc6)n5)c(C)c4)c3)C(=O)[C@H]1C2 | MAPK8 (Homo sapiens, UniProt P45983, C116S) | surface plasmon resonance |  |  |  | association rate constant k1 | 129000 M⁻¹ s⁻¹ |
| NCc1ccc(NC(=O)c2ccc3ccccc3c2O)cc1 | human TMPRSS2 and HAT | jump dilution |  | concentration not given, 15 min preincubation, 1/100 dilution |  | activity recovered after dilution | > 80% |
| CSCC[C@H](NC(=O)[C@H](Cc1c[nH]c2ccccc12)NC(=O)[C@@H](NC(=O)[C@@H](NC(=O)[C@@H](NC(=O)[C@H](C)NC(=O)[C@@H](NC(=O)[C@H](C)NC(=O)[C@H](CCCCN)NC(=O)[C@H](CCCCN)NC(=O)[C@@H](NC(=O)[C@H](CC(N)=O)NC(=O)[C@H](CCC(=O)O)NC(=O)[C@@H](N)CCSC)C(C)C)[C@@H](C)O)[C@@H](C)O)[C@@H](C)O)[C@@H](C)O)C(=O)N[C@H](C(=O)N1CCC[C@H]1C(=O)N[C@H](C(=O)N[C@@H](C)C(=O)N[C@@H](C)C(=O)O)[C@@H](C)O)C(C)C | Recombining binding protein suppressor of hairless (Rbpj, Mus musculus, UniProt P31266) | isothermal titration calorimetry |  | pH 6.5, 25 °C |  | –TΔS° | 5.9 ± 0.3 kcal/mol |
| N=C(N)NCCC[C@H](NC(=O)[C@H](CC(=O)O)NC(=O)[C@@H]1CSCC(=O)NCC(=O)N[C@@H](Cc2c[nH]cn2)C(=O)N[C@H](Cc2ccccc2)C(=O)N[C@@H](CCCNC(=N)N)C(=O)N[C@H](Cc2c[nH]c3ccccc23)C(=O)N1)C(=O)N[C@@H](Cc1ccccc1)C(=O)NCC(N)=O | MC3R (Homo sapiens, UniProt P41968) | cAMP accumulation | HEK293 expressing MC3R | concentration not given |  | functional activity | inactive |
| CCCCCCCCO[C@@H]1O[C@H](CO)[C@H](O)C[C@H]1O[C@@H]1O[C@@H](C)[C@@H](O)[C@@H](O)[C@@H]1O | ABO (Homo sapiens, UniProt P16442, G235S/G268A/L266M/R176G) | binding, methyl-TROSY NMR titration |  | together with: saturating UDP-Glc |  | koff | 390 ± 20 s⁻¹ |
| O=c1c2sccc2n(CC2COc3ccccc3O2)c(=O)n1O (stereo not drawn) | Flap endonuclease 1 (Homo sapiens, UniProt P39748, R100A) | inhibitor |  | 100 µM, 37 °C, together with: double-flap substrate DF1 |  | maximal single-turnover rate | ~0.0004 min⁻¹ |
| CC(=C(c1ccc(Cl)cc1)c1ccc(OCCCN(C)C)cc1)c1ccc(Cl)cc1 | ESR1 | reporter gene, agonist, yeast estrogen screen |  | 1 µM | relative to: DMSO | fold activation | 1.95 ± 0.19 fold |
| Cc1ccc2ccc3ccc(C)nc3c2n1.Cc1ccc2ccc3ccc(C)nc3c2n1.O.[Cl-].[Cl-].[Cl-].[Yb+3] | Albumin (ALB, Bos taurus, UniProt P02769) | fluorescence quenching titration |  | concentration not given, 303 K |  | number of binding sites | 1.07 |

For quick reference, copied from above:
| Structure (SMILES) | target | assay | system | conditions | scale | measurement | value |
| --- | --- | --- | --- | --- | --- | --- | --- |
| [11CH3]Nc1ccc(-c2nc3ccc(O)cc3o2)cn1 | APP (Homo sapiens, UniProt P05067) | binding, PET | Alzheimer's disease patients, anterior cingulate cortex | unit not given | relative to: control subjects | effect size of DVR | 5.44 |
